Measured values collected from several papers.
Protocols differ between the studies behind these lines. Several values in a cell are separate wells, animals, samples, runs or records. ± marks the error that the study gave.
AR: Androgen receptor (AR, Homo sapiens, UniProt P10275)
CASP4: Caspase-4 (CASP4, Homo sapiens, UniProt P49662)
APP: Amyloid-beta precursor protein (APP, Homo sapiens, UniProt P05067)
Fibroblast growth factor 2 with pentraxin 3: Fibroblast growth factor 2, with pentraxin 3 (Homo sapiens, UniProt P09038)
ESR1: Estrogen receptor (ESR1, Homo sapiens, UniProt P03372)
T1: FMN riboswitch (Lactobacillus plantarum); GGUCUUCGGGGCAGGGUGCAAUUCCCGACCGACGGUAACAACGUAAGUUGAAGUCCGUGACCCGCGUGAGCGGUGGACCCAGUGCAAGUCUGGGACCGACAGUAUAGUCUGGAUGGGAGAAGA

PDSRLLELHITMPFSSPM (LAGE-1 (83-100); sequence looked up) — relative IC50 (HLA-DPB1*0401; peptide binding, biotinylated peptide competition; peptide; relative to: peptide over reference peptide, lower = stronger binding): 326
CC(C)[C@H](NC(=O)[C@H](CCCNC(=N)N)NC(=O)[C@@H](NC(=O)[C@H](CCC(N)=O)NC(=O)[C@H](CCC(N)=O)NC(=O)[C@H](NC(=O)[C@H](Cc1c[nH]c2ccccc12)NC(=O)[C@@H]1CCCN1C(=O)[C@@H]1CCCN1C(=O)[C@H](Cc1ccccc1)NC(=O)[C@H](CO)NC(=O)CNC(=O)[C@H](CCCNC(=N)N)NC(=O)[C@H](CCCNC(=N)N)NC(=O)[C@H](CCCNC(=N)N)NC(=O)[C@H](CCCNC(=N)N)NC(=O)[C@H](CCCNC(=N)N)NC(=O)[C@@H](N)CCCNC(=N)N)C(C)C)[C@@H](C)O)C(=O)O — kon (Disks large homolog 4, PDZ3 domain (Homo sapiens, UniProt P78352); binding, surface plasmon resonance; pH 7.5, 25 °C): 2.19e+06 M⁻¹ s⁻¹
O=C(N1CCCC[C@@H]1Cc1ccccc1)n1cc(C(O)(c2ccc(F)cc2)c2ccc(F)cc2)nn1 — kinact (Diacylglycerol lipase-alpha (Mus musculus, UniProt Q6WQJ1); enzyme activity, inhibitor): 0.00533 s⁻¹
C=CC(=O)Nc1cccc(Nc2nc(Nc3ccc(OCCOC)c(F)c3)ncc2F)c1 — target occupancy (Btk (Mus musculus, UniProt P35991); wild-type mice, spleen; drinking water, dose not given, 40 to 90 h; relative to: water control): ~80%
CCc1nc2c([nH]1)c(=O)n(C)c(=O)n2C — remaining activity (AR; reporter gene, antagonist, PSA-luciferase; HeLa-A6; 10 µM, 24 h, together with: 5 nM dihydrotestosterone; relative to: maximal activity): 83%
CCCCC/C=C\C[C@H](O)/C=C/C=C\C/C=C\CCCC(=O)O — AC50 (Seed linoleate 13S-lipoxygenase-1 (Glycine max, UniProt P08170); substrate specificity kcat/KM AA/LA; pH 9.2, 22 °C, together with: arachidonic and linoleic acid): 28000 ± 2000 nM
Clc1ccc2c(c1)CCc1cccnc1C2=C1CCN(CC2CC2)CC1 — duration of complete antagonism (HRH1 (Homo sapiens, UniProt P35367); histamine-induced calcium response, antagonist; concentration not given, after washout of unbound compound, together with: histamine): ≥ 2 h
O=C(O)c1cccc(C(=O)O)n1 — binding free energy (racE (Bacillus subtilis, UniProt P94556); enzyme activity, inhibitor): -3.68 kcal/mol
Nc1nc2c(ncn2[C@@H]2O[C@@H]3COP(=O)(O)O[C@H]3[C@H]2O)c(=O)[nH]1 — Imax relative to cGMP (CNGA3 (Homo sapiens, UniProt Q16281); ion current, agonist, inside-out patch clamp; Xenopus oocytes; homomeric channel; relative to: maximum cGMP current at start): 1
COc1cccc(C(=O)Nc2nnc(S(=O)(=O)N3CCOCC3)s2)c1 — efficacy (GPR32 (Homo sapiens, UniProt O75388); β-arrestin recruitment, agonist, PathHunter; CHO cells expressing GPR32; concentration not given; relative to: vehicle): 47%
Nc1nc2c(ncn2[C@@H]2O[C@@H]3COP(=O)(O)O[C@H]3[C@H]2O)c(=O)[nH]1 — relative maximal current (Cnga2 (Rattus norvegicus, UniProt Q00195, E583M); ion current, agonist, inside-out patch clamp; E583M channel, -50 mV; relative to: cAMP at saturation): 0.35 ± 0.16
COc1cc2nc(N3CCN(C(=O)c4ccco4)CC3)nc(N)c2cc1OC — remaining activity (CASP4; 33 µM, together with: LEHD substrate; relative to: solvent control): 13.3%
O=S(=O)(O)c1cc(N=C=S)ccc1CCc1ccc(N=C=S)cc1S(=O)(=O)O — ID50 (SLC4A1 (Homo sapiens, UniProt P02730); chloride exchange; human resealed ghosts; 0 °C, no chloride gradient, together with: chloride 60 mM both sides): 130 nM and 190 nM and 170 nM and 160 nM and 120 nM
CSVQ — farnesylation rate constant (Protein farnesyltransferase (Rattus norvegicus, UniProt Q02293+Q04631); substrate, stopped-flow fluorescence; peptide; pH 7.8, 25 °C, single turnover): 4.4 ± 0.5 s⁻¹
CC[S+]([O-])c1nc(-c2cccc(OCc3ccccc3)c2)cc(C(F)(F)F)n1 (centres unmarked) — cAMP accumulation (GLP1R (Homo sapiens, UniProt P43220); positive allosteric modulator; HEK293T overexpressing target; 12.5 µM, together with: GLP-1(9-36); relative to: peptide agonist): > 100%
COc1cc(C=CC(=O)CC(=O)C=Cc2ccc(O)c(OC(F)(F)F)c2)ccc1O — band density (APP; Aβ aggregation, SDS-PAGE western blot, refers to: Aβ1-42 75-200 kDa band; 30 µM, 24 h, 37 °C, together with: Aβ1-42 10 µM; relative to: DMSO): 965 ± 214%
CC[C@H](C)[C@H](NC(=O)[C@H](CCCCN)NC(=O)[C@H](CC(C)C)NC(=O)[C@H](CC(C)C)NC(=O)[C@@H]1CCCN1C(=O)[C@H](CC(C)C)NC(=O)[C@H](CCCCN)NC(=O)[C@@H]1CCCN1C(=O)[C@H](CCCNC(=N)N)NC(=O)[C@@H](NC(=O)[C@H](CCC(N)=O)NC(=O)[C@H](CC(N)=O)NC(C)=O)C(C)C)C(=O)N[C@@H](CC(C)C)C(=O)N[C@@H](Cc1c[nH]cn1)C(=O)N[C@@H](C)C(=O)N[C@@H](C)C(=O)NCC(=O)N[C@@H](C)C(=O)N[C@@H](CCC(N)=O)C(=O)N[C@@H](Cc1ccc(O)cc1)C(N)=O — koff (Protein S100-B (Homo sapiens, UniProt P04271); binding, NMR line shape, fixed Kd; 35 °C, low salt): 30 ± 10 s⁻¹
CNc1cccc2cc(C(=O)Nc3cccc(C(=O)O)c3)c(=O)[nH]c12 — fold increase in activity (gyrB (Escherichia coli, UniProt P0AES6); DNA supercoiling, inhibitor; concentration not given; relative to: analogue without N-methylamino): > 470 fold
FEDSIYADIFIEE — kcat/Km fold change (CSK (Homo sapiens, UniProt P41240); substrate; peptide; concentration not given; relative to: Glu or Asp Y-1 parent peptide): 1.1 fold
Ac-APCRA-NH2 (N-acetyl, C-amide) — ID50 (Fibroblast growth factor 2 with pentraxin 3; binding to PTX3, competitor, surface plasmon resonance; peptide; together with: 150 nM free FGF2): 800000 nM
Ac-GPSLNPFDEED-NH2 (N-acetyl, C-amide) — ΔG (EHD1 EH domain, mouse; ITC; peptide; pH 7.0, 20 °C, 0 mM KCl, first titration): -7.95 kcal/mol
CCCSc1nc2c([nH]1)c(=S)n(C)c(=S)n2C — remaining activity (AR; reporter gene, antagonist, PSA-luciferase; HeLa-A6; 10 µM, 24 h, together with: 5 nM dihydrotestosterone; relative to: maximal activity): 78%
Nc1ccc(/N=N/c2ccccc2)c(N)n1 — remaining activity (CASP4; 33 µM, together with: LEHD substrate; relative to: solvent control): 23%
CC[C@H](C)[C@H](NC(=O)[C@H](NC(=O)[C@@H](N)C(C)C)C(C)C)C(=O)N[C@@H](C)C(N)=O — inhibition (APP; amyloid aggregation, inhibitor, fluorescence; 4 µM, 24 h): 46.5%
Nc1ncnc2c1ncn2[C@H]1C[C@H](O)[C@@H](COP(=O)(O)O)O1 — relative Vmax (AK1 (Homo sapiens, UniProt P00568); substrate; relative to: kcat of D-AMP with human AK1): 48 ± 4%
Cc1cc2nc3c(=O)[nH]c(=O)nc-3n(C[C@H](O)[C@H](O)[C@H](O)COP(=O)(O)O)c2cc1C — Kd (T1, FMN riboswitch (Lactobacillus plantarum); ITC; pH 7.5, 25 °C, NaCl 100 mM): 51 nM
CC[C@H](C)[C@H](NC(=O)[C@H](CC(C)C)NC(=O)[C@H](CC(C)C)NC(=O)CNC(=O)[C@H](Cc1ccc(O)cc1)NC(=O)[C@H](CCCNC(=N)N)NC(=O)[C@H](CO)NC(C)=O)C(=O)N[C@@H](CCCCN)C(=O)N[C@@H](C)C(=O)N[C@@H](Cc1ccccc1)C(=O)N[C@@H](CO)C(=O)N[C@@H](CCSC)C(=O)N[C@H](C(=O)N[C@@H](C)C(=O)N[C@@H](C)C(=O)N[C@@H](CCC(=O)O)C(=O)N[C@H](C(=O)N[C@@H](C)C(=O)N[C@@H](CCCNC(=N)N)C(=O)N[C@@H](CCCNC(=N)N)C(=O)N[C@H](C(=O)N[C@@H](CCCNC(=N)N)C(=O)N[C@@H](CCC(=O)O)C(=O)N[C@@H](Cc1ccccc1)C(=O)N[C@@H](CCCNC(=N)N)C(N)=O)[C@@H](C)O)[C@@H](C)O)[C@@H](C)O — apparent ΔG1 (calmodulin 1-148 sites I and II; calcium binding, Phe fluorescence titration; 12 µM, pH 7.4, 22 °C, together with: 6 µM calmodulin): -6.61 ± 0.5 kcal/mol
c1ccc2[nH]c(-c3cscn3)nc2c1 — remaining activity (CASP4; 33 µM, together with: LEHD substrate; relative to: solvent control): 13.5%
CC[C@H](C)[C@H](NC(=O)COCCOCCOCCOCCN=[N+]=[N-])C(=O)N[C@@H](CCC(=O)O)C(=O)N[C@@H](CC(C)C)C(=O)N[C@@H](CC(C)C)C(=O)N[C@@H](CCC(N)=O)C(=O)N[C@@H](C)C(=O)N[C@@H](CCCNC(=N)N)C(N)=O — dissociation rate constant (E-selectin (SELE, Homo sapiens, UniProt P16581); binding, surface plasmon resonance): 0.0779 ± 0.00381 s⁻¹
CC(=O)N[C@H]1[C@@H](O[C@H](C)[C@H](NC(=O)CNC(=O)[C@H](C)NC(=O)CNC(=O)[C@H](C)NC(=O)CNC(=O)[C@H](C)NC(=O)CNC(=O)[C@@H](NC(=O)[C@H](C)NC(=O)CN)[C@@H](C)O[C@H]2O[C@H](CO)[C@H](O)[C@H](O)[C@H]2NC(C)=O)C(=O)N[C@H](C(=O)N2CCC[C@H]2C(=O)NCC(=O)N2CCC[C@H]2C(=O)NCC(N)=O)[C@@H](C)O)O[C@H](CO)[C@H](O)[C@@H]1O — STD enhancement (Polypeptide N-acetylgalactosaminyltransferase 4 (GALNT4, Homo sapiens, UniProt Q8N4A0); substrate, STD-NMR, refers to: GalNAc N-acetyl methyl; 877 µM, pH 7.4, 298 K, together with: UDP and MnCl2): > 75%
O=S(=O)(C1CC2OC1C(c1ccc(O)cc1)=C2c1ccc(O)cc1)N(CC(F)(F)F)c1ccc(Cl)cc1 (centres unmarked) — efficacy (ESR1; reporter gene, antagonist; HepG2; together with: estradiol 10 nM; relative to: E2 response, negative is inverse agonism): 3 ± 2%
FC(F)OC(Cl)C(F)(F)F (centres unmarked) — GABA current modulation (Gabrg2/GABRB2/Gabra1 (Rattus norvegicus, UniProt P18508+P47870+P62813, C260A/C282A/C312A/C319A/C341A/N289C/Q255C); two-electrode voltage clamp; Xenopus oocytes; 0.3 and 0.9 mM, after Cu-phenanthroline oxidation, together with: GABA EC10; relative to: after DTT): increased
Cc1ccccc1-c1ccc(C(=O)N2CC3(C)CC2CC(C)(C)C3)cc1 (centres unmarked) — radiotracer uptake reduction (Vasopressin V1a receptor (Mus musculus, UniProt Q62463); blocker; CD-1 mouse, septum; subcutaneous, 3 mg/kg, 60 min): 30%
COc1cc2ncnc(Nc3ccc(F)c(Cl)c3)c2cc1OCCCN1CCN(CCC(=O)NCCCCCCCCOc2cccc3c2C(=O)N(C2CCC(=O)N(C)C2=O)C3=O)CC1 (centres unmarked) — degrader-induced degradation (EGFR (Homo sapiens, UniProt P00533, L858R); western blot; H3255; 10 µM, 2 h pretreatment): inhibited
S=c1nc(C2CC2)[nH]c2ccccc12 — inhibition fold change (SMPD1 (Homo sapiens, UniProt P17405); inhibitor; concentration not given, pH 5.0; relative to: HMU-PC over sphingomyelin substrate): 5 fold
Cc1cc(NC(=O)c2cccc(NC(=O)/C=C/CN(C)C)c2)ccc1Nc1nccc(-c2cccnc2)n1 — inhibition (PIP4K2C (Homo sapiens, UniProt Q8TBX8); ATP-biotin probe labeling, KiNativ; A-375; 1 µM, 3 h, first of two sites): 1.9%
CCN(c1ccc(OC)cc1)S(=O)(=O)C1CC2OC1C(c1ccc(O)cc1)=C2c1ccc(O)cc1 (centres unmarked) — efficacy (ESR1; reporter gene, antagonist; HepG2; together with: estradiol 10 nM; relative to: E2 response, negative is inverse agonism): 3 ± 1%
Ac-ARPCA-NH2 (N-acetyl, C-amide) — ID50 (Fibroblast growth factor 2 with pentraxin 3; binding to PTX3, competitor, surface plasmon resonance; peptide; together with: 150 nM free FGF2): 120000 nM
CC1=NN(c2nc(-c3ccc(Cl)cc3)cs2)C(=O)/C1=C\c1ccc2c(c1)OCO2 — lowest inhibitory concentration (rabbit myokinase, pyruvate kinase, lactate dehydrogenase; coupled enzyme activity, promiscuity counterscreen; 90 min preincubation): > 6.25 µM
Ac-YESTNPFTAK-NH2 (N-acetyl, C-amide) — ΔG (EHD1 EH domain, mouse; ITC; peptide; pH 7.0, 20 °C, 0 mM KCl, first titration): -5.16 kcal/mol
CC1=CC(=O)CC(C)(C)C1=O — conversion (Enoyl-ACP reductase (Thermus thermophilus, UniProt P83818); 24 h, pH 7, 30 °C, aerobic, together with: 10 mM substrate, 15 mM NAD(P)H): 29 to 83%

Excerpt of the above:
Ac-ARPCA-NH2 (N-acetyl, C-amide) — ID50 (Fibroblast growth factor 2 with pentraxin 3; binding to PTX3, competitor, surface plasmon resonance; peptide; together with: 150 nM free FGF2): 120000 nM
CC1=NN(c2nc(-c3ccc(Cl)cc3)cs2)C(=O)/C1=C\c1ccc2c(c1)OCO2 — lowest inhibitory concentration (rabbit myokinase, pyruvate kinase, lactate dehydrogenase; coupled enzyme activity, promiscuity counterscreen; 90 min preincubation): > 6.25 µM
Ac-YESTNPFTAK-NH2 (N-acetyl, C-amide) — ΔG (EHD1 EH domain, mouse; ITC; peptide; pH 7.0, 20 °C, 0 mM KCl, first titration): -5.16 kcal/mol
CC1=CC(=O)CC(C)(C)C1=O — conversion (Enoyl-ACP reductase (Thermus thermophilus, UniProt P83818); 24 h, pH 7, 30 °C, aerobic, together with: 10 mM substrate, 15 mM NAD(P)H): 29 to 83%
